Assay results collected from several papers.
Parts stem from different laboratories: compare values within a part only. Changes are numbered by the printed parent chain.

Set 1
Molecule: PhoQ, residues 284 288 289 292 302 303 NLGVHL
Technique: Sort-seq
Measured: YFP reporter
Medium: E. coli
Notes: PhoQ-PhoP variant library
Together with: 10 µM Mg2+
Reference: high Mg2+ state
Reading: higher = stronger signaling
The fold induction was 20 (PhoP, residues 12 14 15 18 19 SHWTV (Escherichia coli, UniProt P23836)).
PhoP, residues 12 14 15 18 19 STHWV (Escherichia coli, UniProt P23836) — fold induction: 6.56.
For PhoP, residues 12 14 15 18 19 QYCSL (Escherichia coli, UniProt P23836): fold induction read 0.159.

Set 2
Target: CCNE2, cyclin fold, Cln2 fusion (human)
Technique: yeast growth competition, sequencing
Medium: yeast
Notes: strong parent motif
Reference: not given
Reading: higher = stronger binding
Starting sequence: GMNC docking peptide (human); KNAKRNLSSEFAN; partner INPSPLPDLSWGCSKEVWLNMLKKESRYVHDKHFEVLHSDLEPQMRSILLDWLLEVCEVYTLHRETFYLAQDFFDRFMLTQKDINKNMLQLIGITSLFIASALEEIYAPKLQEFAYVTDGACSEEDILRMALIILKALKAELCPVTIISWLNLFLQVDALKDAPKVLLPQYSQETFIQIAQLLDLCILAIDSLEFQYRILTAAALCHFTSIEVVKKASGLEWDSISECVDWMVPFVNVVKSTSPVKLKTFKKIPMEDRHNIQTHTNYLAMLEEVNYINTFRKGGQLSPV
Under “normalised enrichment score”, `KNAKRNMSSEFAN [L7M]` is recorded as -0.0529.
For `KTAKRNLSSEFAN [N2T]`, “normalised enrichment score” read 1.71.
Under “normalised enrichment score”, `KNAKMNLSSEFAN [R5M]` is recorded as 0.237.
Under “normalised enrichment score”, `KNPKRNLSSEFAN [A3P]` is recorded as -0.127.
Under “normalised enrichment score”, `KNAKVNLSSEFAN [R5V]` is recorded as 0.181.
`KNARRNLSSEFAN [K4R]` — result for “normalised enrichment score”: 2.61.
Under “normalised enrichment score”, `KNAKQNLSSEFAN [R5Q]` is recorded as 0.618.
`KEAKRNLSSEFAN [N2E]`: “normalised enrichment score” 1.06.
`KNAKRNLSSRFAN [E10R]` — result for “normalised enrichment score”: 0.537.
`KNAKRNLSSECAN [F11C]` — result for “normalised enrichment score”: 0.4.
`KNAKRNLSSEWAN [F11W]` — result for “normalised enrichment score”: 1.12.
`KNAKRNKSSEFAN [L7K]`: “normalised enrichment score” 0.0444.
Under “normalised enrichment score”, `KNAKRNLSSEFCN [A12C]` is recorded as 1.45.
Under “normalised enrichment score”, `KNAKENLSSEFAN [R5E]` is recorded as 0.247.
`KNAKRNLSSEFTN [A12T]`: “normalised enrichment score” 1.59.
For `KNAKDNLSSEFAN [R5D]`, “normalised enrichment score” read -0.00385.
`KNAKKNLSSEFAN [R5K]`: “normalised enrichment score” 0.408.

Set 3
Target: RNA binding protein fox-1 homolog 2, RRM domain, GST-SBP tag (RBFOX2, Homo sapiens, UniProt O43251-10, residues 100-194)
Technique: RNA Bind-n-Seq
Form: RNA
Medium: in vitro
Tested at: 365 nM
Notes: natural RNA segment, single round, ends assumed
Reference: no-protein control
Reading: higher = stronger binding
All sequences stand within: GGGAGUUCUACAGUCCGACGAUC … UGGAAUUCUCGGGUGCCAA
For `GCCUUCGCUUUAUUUUUUUAUAACUAUCAACUGCCAUCAUGUUUUGUAAUUUGGGGAUCUUGAUUUCACCGUUGUUGGUGAAGGAAAUUUUCAAUAAAUAUGCAUAACCU`, “RBNS enrichment (R)” read 0.467.
`UAAUGUACUUGAGUUUCAUUGUUCUUUUAGUUUGUAUUCUUAUAAAAAAUGUUUACACUCUGCAGAUUGAUUUUUUUUUUUUAGUACUGUGGCUUUCUUUUCCUAUUUUA`: “RBNS enrichment (R)” 0.818.
Under “RBNS enrichment (R)”, `AUUUCUGUGCACAUCCUUGGAGGCGAGAUGAGCUCCUUGCAGAGGGCCAGAGUAAGUGCAAGUCAUGGAGUGCAGGCAGAGGGGUCCAUGGCUUCCCCAGCCCAGGGAGG` is recorded as 0.482.
`AGAGAAAAGGAUUGUGGGAAACUCCAGGACUCUUCCCACCGCCUCCCAGCGCCUGCCUGCUGGGGCUGCCUGCAUGCCUCCCCUGCACCUGGGGGUACCCGCAUCCACUU`: “RBNS enrichment (R)” 29.4.
Under “RBNS enrichment (R)”, `AUUAUAGAACCAACGGAAAUAUGGGCACUAUUUUGAAUUCUAGAGAUGGUUUUUGUUAAAUCUACUAAUAAACUGUUCUCUUAGUAGAUUAAGAGAGAGUAAUAUUAAUU` is recorded as 0.536.
For `CUCCCAGUACCAGCAAGGGGGCCGUAGGUAAUUGUGUGCUUUCUUAAAGAAGUGUAUGUUUUCUGAAAGCAAAAGAAUAAAGGAAGGCCCGUCAUUCAGAGACCACUGUG`, “RBNS enrichment (R)” read 2.65.
For `UCCCCUUGCCUACAGGCCAGCACAUCCCUGGCUGCAGUGCCCAGCAGCUCCCAGCAUGCUCCGUGAUGUUCAGUGGGCAGCAUUACCCCCUCUGCUGCCUCCCGCCCCCG`, “RBNS enrichment (R)” read 7.58.
Under “RBNS enrichment (R)”, `CCAUGUAACAGAAAUUACUGCCUGAAAUGUUGGCAUUCAUAGUAAUUACGGAUGUAAUUCUGUGUAUCUUGCUGUGACUCCGAAGACUGUAGUACUGGUGUCAUGGAAAU` is recorded as 0.876.

Set 4
Target: Sal-like protein 4, full length isoform B (SALL4, Homo sapiens, UniProt Q9UJQ4-2, residues 1-616)
Technique: universal PBM
Form: double-stranded DNA, one strand shown
Medium: in vitro
Tested at: not given
Notes: 8-mer, flanks averaged, mean of replicates
Reading: higher = stronger binding
For `CGCACTGC`, the E-score was -0.201.
With `GAATATCA` the E-score was 0.228.
`CCTTCGAG` has an E-score of -0.241.
The E-score of `CCTTTCGC` is reported as -0.0769.
For `CTAACGAC`, the E-score was -0.0482.
For `CATGCCTC`, the E-score was 0.00689.
For `CGCTATTA`, the E-score was 0.168.
`CACCTTGC` gave an E-score of -0.104.
`AAACGTAC` has an E-score of 0.137.
`CCACATGC` has an E-score of 0.138.
For `CACTTTTA`, the E-score was 0.177.
With `ATCTCTAA` the E-score was 0.0845.
`TCCGCGCA` has an E-score of -0.164.
With `GAAGGGCC` the E-score was -0.279.
`CTGCGGCC` has an E-score of -0.436.
For `ACCGCCAC`, the E-score was -0.082.
`CCGCCGTA` gave an E-score of -0.231.

Excerpt of the above (set 4):
`CTGCGGCC` has an E-score of -0.436.
For `CTAACGAC`, the E-score was -0.0482.
`CCGCCGTA` gave an E-score of -0.231.
For `CGCACTGC`, the E-score was -0.201.
For `CGCTATTA`, the E-score was 0.168.
